Results of several laboratories.
Each line is one published result; not all experiments were run side by side. Numbers after ± are the reported error.

SMILES | cell line | observed | technique | time | notes | with | IC50
O=C1Nc2ccccc2C1=NN=Cc1ccc(F)cc1 | MCF7 and MDA-MB-231 | cytotoxicity | MTT | 24 and 48 h | – | – | ~10 µg/mL
CCC(C(=O)O)C1CCC(C)C(C(C)C(O)C(C)C(=O)C(CC)C2OC3(C=CC(NCc4cn(-c5ccc(C(C)=O)cc5)nn4)C4(CCC(C)(C5CCC(O)(CC)C(C)O5)O4)O3)C(C)CC2C)O1 (stereo not drawn) | HMLER CD24high/CD44low | cell viability | CellTiter-Blue | 72 h | – | – | 0.74 ± 0.17 µM
O=C(Nc1ccc(Cl)c(-c2nc3ccccc3[nH]2)c1)c1ccc(NC(=O)c2ccccc2Cl)cc1 | NIH3T3-Gli-Luc | Hedgehog signalling | Gli-luciferase reporter | – | – | Shh-conditioned medium | 0.25 µM
CC(C)N(CCC1CC2CN(Cc3ccc(S(C)(=O)=O)cc3)CC2C1)C[C@H]1O[C@@H](n2cnc3c(N)ncnc32)[C@H](O)[C@@H]1O (stereo partly drawn) | H460 R231Q | cell proliferation | CCK-8 | 72 h | – | – | > 100 µM
CC(C)(C)c1nc(-c2cccc(NS(=O)(=O)c3c(F)cccc3F)c2F)c(-c2ccnc(N)n2)s1.Cc1[nH]c2ccccc2c1CCNCc1ccc(/C=C/C(=O)NO)cc1 | SK-MEL-28 | cell growth or viability | crystal violet | – | – | – | 0.0219 µM
Cc1ncsc1-c1ccc(C(CO)NC(=O)C2CC(O)CN2C(=O)C(C(C)C)n2cc(-c3ccc(COc4c(-c5c(C)c(F)cc6[nH]ncc56)c(C5CC5)cc5c(N6CC7CC6CN7)nc(OC6CCOCC6)nc45)cc3)nn2)cc1 (stereo not drawn) | COLO 320 (KRAS wild type) | cell growth | CellTiter-Glo | 144 h | 3D culture | – | > 10 µM
COc1cccc2c1C(=O)c1c(O)c3c(c(O)c1C2=O)CC(O)(C(CO)=NNC(=O)CCCCC(=O)NNC(=O)CCCc1ccc(I)cc1)CC3OC1CC(N)C(O)C(C)O1 (stereo not drawn) | mouse KPC pancreatic cancer | cell viability | alamarBlue | 72 h | – | – | 2.08 µM
CO[C@@H]1[C@@H](O[C@@H]2O[C@H](C)[C@@H](O[C@H]3C[C@@](C)(O)[C@@H](OC(=O)C4CCCCC4)[C@H](C)O3)[C@H](N(C)C)[C@H]2O)[C@@H](CC=O)C[C@@H](C)[C@@H](O[C@H]2CC[C@H](N(C)C)[C@@H](C)O2)/C=C/C=C/C[C@@H](C)OC(=O)C[C@H]1O | HGC-27 | cell growth or viability | CCK-8 | 72 h | – | – | 4.27 µM
CCOC(=O)C1=CN([C@@H]2O[C@H](CO)[C@@H](O)[C@H]2O)C=CC1 | CAPAN-1 | cell growth or viability | CCK-8 | – | – | – | 46.7 µM
COc1c(C)c(O)c(C(=O)C=Cc2ccccc2)c(OC)c1C | KKU-M213 | cell growth or viability | SRB | 72 h | – | – | 23.9 µM
CC(=O)N[C@@H](CCCNC(=N)N)C(=O)N[C@H](CC(=O)N[C@@H](Cc1ccccc1)C(N)=O)c1cccc2ccccc12 | BT-474 (HER2-overexpressing) | – | – | – | – | – | 6.37 ± 0.31 µM
N=C(S)N/N=C/c1ncc(C(F)(F)F)cc1Cl | HCC4017 | cell growth or viability | MTS | 96 h | – | – | 10 µM
CC(C)c1cccc(C(C)C)c1-n1ccn(-c2c(C(C)C)cccc2C(C)C)c1=[Se].[Cl][Ag] | A-431 | cell growth or viability | MTT | 72 h | – | – | 0.4 µM
Oc1c(/N=N/c2ccccn2)ccc2ccccc12 | LDR | cell viability | MTS | 4 days | – | – | 0.8 µM
CC(=O)OC[C@H]1O[C@@H](NC(=O)NC(=O)/C=C/c2ccc(C(C)C)cc2)[C@H](OC(C)=O)[C@@H](OC(C)=O)[C@@H]1OC(C)=O | L1210, CEM and HeLa | cell growth | – | – | range over three cell lines | – | 16 to 45 µM
N=C(N/N=C/c1ccc(Cl)cc1)N/N=C/c1ccc(Cl)cc1 | IMR-90 | cell growth or viability | crystal violet | 72 h | – | – | 43.5 µM
CCN(CC)CCCNC(=O)CSc1c2c(nc3cc(Cl)ccc13)CCCC2 | HCC4017 | cell growth or viability | MTS | 96 h | – | – | > 50 µM
CCN1/C(=C/C=C2\CCCC(/C=C/C3=[N+](CC)c4ccccc4C3(C)C)=C2NCCCCCCCCN2CCC(Nc3nc4ccccc4n3Cc3ccc(F)cc3)CC2)C(C)(C)c2ccccc21 | A 172 | cell growth or viability | CCK-8 | 72 h | – | – | ~1 µM

Repeated from above:
SMILES | cell line | observed | technique | time | notes | with | IC50
CC(=O)N[C@@H](CCCNC(=N)N)C(=O)N[C@H](CC(=O)N[C@@H](Cc1ccccc1)C(N)=O)c1cccc2ccccc12 | BT-474 (HER2-overexpressing) | – | – | – | – | – | 6.37 ± 0.31 µM
